# Measured values collected from several papers.
# Cell line: CCRF-CEM
# Observed: cell growth or viability
SMILES,test,setting,IC50
O=c1ccn([C@@H]2O[C@H](CO)[C@@H](O)[C@H](F)[C@H]2O)c(=O)[nH]1,,,> 200 µM
O=[N+]([O-])c1ccc(NC(=S)N/N=C/c2cccs2)cc1,,,27 µM
C(=C/c1ccccc1)/c1ccccc1,ATP luminescence,24 h,53 µM
C[C@@H]1CCC2[C@]34OO[C@](C)(CC[C@@H]13)O[C@H]4OC[C@]2(C)O (some centres unmarked),XTT,,156 µM
O=[N+]([O-])c1ccc(/C=N/NC(=S)Nc2ccccc2)s1,,,6.4 µM
COc1ccc(C[C@H]2COC(=O)[C@@H]2Cc2ccc(OCCCCCCCC(=O)NO)c(OC)c2)cc1OC,CCK-8,48 h,1.35 µM
COc1cc(-c2cc(=O)c3c(O)cc(OC4OC(COC5OC(C)C(O)C(O)C5O)C(O)C(O)C4O)cc3o2)ccc1O (centres unmarked),resazurin,72 h,51.6 µM
COc1ccc(C[C@H]2COC(=O)[C@@H]2Cc2ccc(OCCCCCCCCC(=O)NO)c(OC)c2)cc1OC,CCK-8,48 h,2.09 µM
O=C(Nc1ncnc2c1ncn2[C@@H]1O[C@H](CO)[C@@H](O)[C@H](F)[C@H]1O)c1ccccc1,,,120 µM
OC[C@H]1[C@@H](O)[C@@H](O)CN1CCc1ccccc1,MTS,72 h,95 µM
O=c1ccn([C@@H]2O[C@H](CSSC[C@H]3O[C@@H](n4ccc(=O)[nH]c4=O)[C@H](O)[C@@H](F)[C@@H]3O)[C@@H](O)[C@H](F)[C@H]2O)c(=O)[nH]1,,,> 500 µM
C[C@H]1C(OC(=O)CCC(=O)O)O[C@@H]2O[C@@]3(C)CC[C@H]4[C@H](C)CCC1[C@@]24OO3 (some centres unmarked),XTT,,0.55 µM
C=C1C(=O)OC2C1CCC1(C)CC1CCC1(C)OC21 (centres unmarked),resazurin,,2 µM
Cc1cn([C@@H]2O[C@H](CSSC[C@H]3O[C@@H](n4cc(C)c(=O)[nH]c4=O)[C@H](O)[C@@H](F)[C@@H]3O)[C@@H](O)[C@H](F)[C@H]2O)c(=O)[nH]c1=O,,,> 500 µM

# A few entries again:
SMILES,test,setting,IC50
O=c1ccn([C@@H]2O[C@H](CSSC[C@H]3O[C@@H](n4ccc(=O)[nH]c4=O)[C@H](O)[C@@H](F)[C@@H]3O)[C@@H](O)[C@H](F)[C@H]2O)c(=O)[nH]1,,,> 500 µM
O=C(Nc1ncnc2c1ncn2[C@@H]1O[C@H](CO)[C@@H](O)[C@H](F)[C@H]1O)c1ccccc1,,,120 µM
